# Assay results pooled from the literature.
# A part holds a random share of what one study measured. Values joined by “and” are separate records of one study, mostly repeats; a detail may differ. Substitutions count along the parent as printed.
# Chain of UniProt O94806 (whole entry, looked up): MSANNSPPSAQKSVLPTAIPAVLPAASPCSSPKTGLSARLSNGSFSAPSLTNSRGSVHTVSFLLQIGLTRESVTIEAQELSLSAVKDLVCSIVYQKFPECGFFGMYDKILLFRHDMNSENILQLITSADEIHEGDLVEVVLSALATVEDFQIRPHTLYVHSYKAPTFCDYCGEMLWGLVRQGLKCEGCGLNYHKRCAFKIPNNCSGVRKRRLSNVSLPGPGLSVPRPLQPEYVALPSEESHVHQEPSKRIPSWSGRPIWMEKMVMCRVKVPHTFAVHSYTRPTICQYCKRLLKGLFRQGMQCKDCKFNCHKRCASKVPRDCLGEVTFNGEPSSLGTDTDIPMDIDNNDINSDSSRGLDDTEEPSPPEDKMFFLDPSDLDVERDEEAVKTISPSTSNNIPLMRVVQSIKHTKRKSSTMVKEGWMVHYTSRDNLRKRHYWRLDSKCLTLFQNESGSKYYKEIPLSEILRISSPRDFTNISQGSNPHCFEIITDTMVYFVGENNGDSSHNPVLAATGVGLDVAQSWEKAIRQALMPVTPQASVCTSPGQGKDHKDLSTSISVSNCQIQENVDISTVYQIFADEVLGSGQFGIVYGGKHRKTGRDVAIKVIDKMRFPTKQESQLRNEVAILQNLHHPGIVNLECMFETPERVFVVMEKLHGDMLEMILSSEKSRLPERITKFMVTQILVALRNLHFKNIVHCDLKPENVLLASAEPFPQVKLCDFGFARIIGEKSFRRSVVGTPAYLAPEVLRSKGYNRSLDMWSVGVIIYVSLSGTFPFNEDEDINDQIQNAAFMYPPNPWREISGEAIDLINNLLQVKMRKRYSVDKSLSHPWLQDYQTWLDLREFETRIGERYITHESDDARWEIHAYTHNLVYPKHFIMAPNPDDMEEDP
# Chain of UniProt Q7L7X3 (whole entry, looked up): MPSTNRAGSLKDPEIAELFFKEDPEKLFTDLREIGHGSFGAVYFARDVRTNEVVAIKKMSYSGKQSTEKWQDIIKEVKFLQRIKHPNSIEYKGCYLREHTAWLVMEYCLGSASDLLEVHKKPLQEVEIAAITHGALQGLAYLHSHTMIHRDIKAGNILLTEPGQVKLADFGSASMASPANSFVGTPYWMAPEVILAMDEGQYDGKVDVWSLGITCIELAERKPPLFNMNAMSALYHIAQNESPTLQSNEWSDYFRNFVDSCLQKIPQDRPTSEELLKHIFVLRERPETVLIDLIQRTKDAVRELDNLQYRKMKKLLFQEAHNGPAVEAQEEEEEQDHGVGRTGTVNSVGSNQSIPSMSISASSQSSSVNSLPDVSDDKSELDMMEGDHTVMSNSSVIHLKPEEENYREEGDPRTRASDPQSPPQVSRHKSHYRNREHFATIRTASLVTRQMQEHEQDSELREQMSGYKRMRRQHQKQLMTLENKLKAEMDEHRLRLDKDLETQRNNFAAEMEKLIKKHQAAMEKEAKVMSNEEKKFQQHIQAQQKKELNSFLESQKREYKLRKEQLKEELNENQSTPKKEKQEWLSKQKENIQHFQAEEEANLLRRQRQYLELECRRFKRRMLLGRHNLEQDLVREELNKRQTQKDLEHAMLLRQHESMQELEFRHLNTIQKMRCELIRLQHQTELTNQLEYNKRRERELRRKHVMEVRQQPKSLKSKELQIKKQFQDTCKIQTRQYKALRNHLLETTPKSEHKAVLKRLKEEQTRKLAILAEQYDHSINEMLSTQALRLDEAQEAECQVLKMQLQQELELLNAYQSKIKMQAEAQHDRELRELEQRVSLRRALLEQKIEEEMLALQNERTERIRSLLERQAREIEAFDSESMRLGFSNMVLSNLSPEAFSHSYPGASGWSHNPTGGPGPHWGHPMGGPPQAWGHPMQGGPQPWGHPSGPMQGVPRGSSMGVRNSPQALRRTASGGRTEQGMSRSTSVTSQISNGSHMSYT
# Chain of UniProt P25100 (whole entry, looked up): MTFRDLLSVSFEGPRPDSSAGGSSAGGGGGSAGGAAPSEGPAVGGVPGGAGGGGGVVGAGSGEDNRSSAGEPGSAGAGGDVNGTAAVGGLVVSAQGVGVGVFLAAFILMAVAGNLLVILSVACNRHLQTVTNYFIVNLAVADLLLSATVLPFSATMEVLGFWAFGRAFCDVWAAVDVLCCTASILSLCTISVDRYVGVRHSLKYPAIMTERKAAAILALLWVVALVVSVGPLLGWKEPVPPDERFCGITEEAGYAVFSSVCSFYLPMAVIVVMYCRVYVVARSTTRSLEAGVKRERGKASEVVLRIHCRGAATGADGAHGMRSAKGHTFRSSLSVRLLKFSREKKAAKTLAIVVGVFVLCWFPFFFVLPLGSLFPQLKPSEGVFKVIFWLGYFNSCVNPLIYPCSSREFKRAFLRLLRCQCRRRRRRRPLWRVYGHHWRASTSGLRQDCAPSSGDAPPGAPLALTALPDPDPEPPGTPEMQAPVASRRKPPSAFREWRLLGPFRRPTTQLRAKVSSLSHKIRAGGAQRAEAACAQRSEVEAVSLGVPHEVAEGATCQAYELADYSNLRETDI
# Chain of UniProt Q04771 (whole entry, looked up): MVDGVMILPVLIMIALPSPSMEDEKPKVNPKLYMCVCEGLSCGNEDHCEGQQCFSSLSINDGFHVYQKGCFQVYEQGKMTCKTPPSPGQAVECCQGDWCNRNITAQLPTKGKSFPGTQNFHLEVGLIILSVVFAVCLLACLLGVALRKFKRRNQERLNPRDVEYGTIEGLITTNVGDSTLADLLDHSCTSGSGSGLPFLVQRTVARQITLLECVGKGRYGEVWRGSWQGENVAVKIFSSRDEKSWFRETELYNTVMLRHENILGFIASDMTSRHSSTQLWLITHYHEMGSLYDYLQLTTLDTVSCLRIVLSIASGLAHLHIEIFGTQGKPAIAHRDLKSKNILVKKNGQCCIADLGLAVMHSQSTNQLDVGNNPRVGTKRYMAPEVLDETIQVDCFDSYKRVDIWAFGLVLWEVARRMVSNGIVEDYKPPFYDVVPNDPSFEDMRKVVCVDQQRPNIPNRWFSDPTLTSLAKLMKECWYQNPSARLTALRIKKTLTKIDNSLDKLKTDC

# Study 1
# SMILES: CNC(=O)c1ccc(-c2cnn3ccc(C(=O)N(C)c4ccc(Cl)c(C(=O)OC)c4)cc23)cc1
# Organism: Cryptosporidium parvum
# Method: time-kill
# Cells: HCT-8
# Strain: nanoluciferase-expressing
# Reading: higher = more parasites
tested at,time,parasite luminescence
20 µM,24 h,99100 RLU and 89600 RLU
2.222 µM,8 h,106000 RLU and 88500 RLU
20 µM,48 h,26000 RLU and 30900 RLU

# Study 2
# Target: vanadate, free oxyanion
# Method: microfluidic competitive inhibition
# Medium: in vitro, cell-free expressed
# Tested at: not given
# Setting: derived from inhibition constants, unchanged parent 676 nM
# Reading: lower = stronger binding
# Starting sequence: PafA, mature enzyme, eGFP fusion (Elizabethkingia meningoseptica, UniProt Q9KJX5); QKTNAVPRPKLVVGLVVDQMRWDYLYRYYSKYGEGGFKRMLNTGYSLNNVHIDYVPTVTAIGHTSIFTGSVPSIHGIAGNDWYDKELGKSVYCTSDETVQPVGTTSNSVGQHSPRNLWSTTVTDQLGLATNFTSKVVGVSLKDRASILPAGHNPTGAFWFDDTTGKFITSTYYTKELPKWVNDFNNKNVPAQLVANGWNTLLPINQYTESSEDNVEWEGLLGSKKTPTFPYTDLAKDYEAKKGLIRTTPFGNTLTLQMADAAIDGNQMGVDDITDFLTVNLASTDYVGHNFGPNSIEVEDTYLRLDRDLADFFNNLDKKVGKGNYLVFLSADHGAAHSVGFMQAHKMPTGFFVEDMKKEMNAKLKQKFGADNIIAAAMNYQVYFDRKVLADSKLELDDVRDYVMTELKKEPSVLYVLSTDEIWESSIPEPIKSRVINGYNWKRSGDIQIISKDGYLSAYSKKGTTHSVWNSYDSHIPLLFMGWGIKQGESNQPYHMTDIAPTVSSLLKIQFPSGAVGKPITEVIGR
Substitution,oxyanion analog dissociation constant
H63G,2.83 µM
A191V,776 nM
I204G,617 nM
I485V,1.86 µM
K38G,532 nM
Q366V,725 nM
A344V,792 nM
P227G,480 nM

# Study 3
# SMILES: N/C(=N\[N+](=O)[O-])N/N=C\c1ccc(-c2cccc([N+](=O)[O-])c2)o1
# Observed: enzyme activity
# Action: inhibitor
# Tested at: 0.5 µM
# Baseline: control
target,remaining activity
"Serine/threonine-protein kinase D3 (PRKD3, Homo sapiens, UniProt O94806)",93.9%
"Serine/threonine-protein kinase TAO1 (TAOK1, Homo sapiens, UniProt Q7L7X3)",89.6%
"Activin receptor type-1 (ACVR1, Homo sapiens, UniProt Q04771)",98%

# Single results of other studies
Structure (SMILES),target,observed,method,tested at,quantity,value
C[C@H](c1ccc(F)cc1)N(Cc1cccc(C(=O)O)c1)C(=O)c1cnc2ccccc2c1,"Cyclin-dependent kinase 2 homolog (CRK2, Plasmodium falciparum, UniProt P61075)",cell-free assay,competition with immobilised ligand,1 µM,remaining binding,100%
CNC(=O)c1cc(C(=O)NC2CC2)cn(Cc2ccccc2)c1=O,"Alpha-1D adrenergic receptor (ADRA1D, Homo sapiens, UniProt P25100)",binding,radioligand binding,10 µM,inhibition,2.36%

# For quick reference, copied from above (study 2):
Substitution,oxyanion analog dissociation constant
A191V,776 nM
I204G,617 nM
